Results of several laboratories.
Numbered parts are unrelated; each lists some results of a single study.

Sample 1
Target: Interferon regulatory factor 5, full length, phosphomimetic (IRF5, Homo sapiens, UniProt Q13568-2, residues 1-514, S451D/S453D/S456D/S462D)
Technique: protein-binding microarray
Form: double-stranded DNA, one strand shown
Matrix: in vitro
Concentration: 940 nM top
Setting: 60-bp whole probe
With: salmon DNA 0.4 mg/ml
Reference: random background probes
Direction: higher = stronger binding
All sequences stand within: GCCTAGCAC … GTCTTGATTCGCTTGACGCTGCTG
Sequence	fitted relative affinity
TTAGAATTCGGGTTTCGATTAGTGCTA	5.78 z-score
TTAGGTTTCGACTCTGGGTTAGTGCTA	8.18 z-score
GACGGTATCGGTCTGGGGACGTGCTAG	7.97 z-score
CTAGGTTTCGGGTATCGGTTAGTGCTA	10.2 z-score
CTGCACTCCAGTCTGGGAGAGTGCTAG	-0.334 z-score
GACGGTCTGCTTTTCCTGACGTGCTAG	-0.115 z-score
GACGAACTGGGGGCTGGAGACGTGCTA	0.766 z-score
TTAGGACTGGGACAGGGTTAGTGCTAG	-0.832 z-score
TTAGGTTTCTTTTATTCAAAGTGCTAG	3.84 z-score
TTAGGTCTCGATCTCGGTTAGTGCTAG	3.75 z-score
TCATCTCCGGGGTCTGTGACTGTGCTA	-0.111 z-score
GACGGTTTCGGTCTCTGGACGTGCTAG	13.7 z-score
TTAGGTTTCGGAATGGGTTAGTGCTAG	8.63 z-score
GACGATATCAGCCTCGAGACGTGCTAG	-0.152 z-score
GACGGTCTCGGACTGGGGCCGTGCTAG	0.407 z-score
TCAATTTTTACTTTCTGACTGTGCTAG	1.64 z-score

Sample 2
Target: RNA binding protein fox-1 homolog 2, RRM domain, GST-SBP tag (RBFOX2, Homo sapiens, UniProt O43251-10, residues 100-194)
Technique: RNA Bind-n-Seq
Form: RNA
Matrix: in vitro
Concentration: 365 nM
Setting: natural RNA segment, single round, ends assumed
Reference: no-protein control
Direction: higher = stronger binding
All sequences stand within: GGGAGUUCUACAGUCCGACGAUC … UGGAAUUCUCGGGUGCCAA
Construct (chain): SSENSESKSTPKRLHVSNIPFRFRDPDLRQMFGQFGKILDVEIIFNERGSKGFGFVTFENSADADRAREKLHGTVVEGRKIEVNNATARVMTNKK
Sequence	RBNS enrichment (R)
CUCUAACCCUGCUCCUUCCUAGCACAGCUCUGCACAUCCAUCUCUCUCUCUUGCUGAAUGCACAUAUGUGCACACAUGUCAGCAUGUGCAUGCUCACUCCCCCACUUCUC	2.55
CUGACCCUUUGGAGGGGGUCUCUGUGUGCUGAAGCUAACUCAAGAUGGAAAGUGAAACCACAUGUGCCGUGACCUUUAGGUUUUAUGAGUAGACAGUGUUCAUUUGAUUU	0.413
UCUGGGCUUUCCUUUGCCCUCAGUUUUUCACAGGUAGGUAGUAGCCAUGGAGGGCUGAAGCCCAGGCUCUCCUUACUCUCUGGAGUGUGAAGGUAGGGGUGAGCUCGUCU	0.311
ACAAAACACACAAUUUGGGAUUUUGACUCUUCAGUUUUGACCUCACUUCUCCUGGAUCCAACCUGACAGGAGAUGACUGGAUUGCUGGGGUAGAGAAGGAAAGGCUGUCC	0.344
CCAGGCAAGGAGACCAAAACUUUCGCUCUGUUCACUUGUGCCUCACUUUGGAAGCUUAACUUCCCACCUAUCUGGGCCUUACUGGUUUACUUGUGGUUUUCCAUAGUUUU	0.202
UGGGUGGGAGUGGAAGUCCCUAGCACACAGCUUUGUGGAGACCUCCACUCUCACUCUUGGUGCAACUGACUUCCACUUCUUAUGCAGCCACUCCCAGGUGCAUGCUUCAG	0.779
UACUGACCAUAGCAUGUGACACUCAGACUUCUCAGCUCCUGUGCAUCCCAGUGUAGGCUCUGAGGCCACAUGGAAACUCUAGAUGGUUCUGAUCACUCUAGCCACCGGAG	6.52
AAGGAUAUUUAUAAUUAAAACAGCCUGUCAUGAGGCAACUGUGAGUGGAACAUCUGGGAAUUUGAGAAGUAUCUGCAAAGUAUAGAAAAAUCAACAGAUUUGUGGACCCU	0.51
UGGAACUUGGUCUCCCAACACUUAUUGUGAUUGCAAAGUGUUUACCAGAUAUUUGAUGAGGUGCUAUGUUUGUGAAAAACAUAUCAUGUAAUUCAAAAACACUAUUGAUA	0.66
UCUGUCUUUGCACUUAGCUGUUCAAGUAUUGCCUUGGAUUUACAAAAUACAAGGGAUGGGGAAAUCUUCUGGAUUCUGUUUUGUGACUGGAUGACCCUAGCUUCUUUACC	0.316
AAUUUCCUUAUACUGUGGCUUGGUAUUAUUCAAGAUUAGCUAUUUCGCUGGUAUUACAUCUUUUUAAAAGCCUAUUAUAACAUGGUUAGCCUAUAAGGCAGUGUUGGUCC	0.336
ACAUCUGCUCAUUGUCUAAUGCCUGACCCCCAUUCAUUUAGUUAUUCAAUAUAGACUUGCCCAAUUAGCCCAUCGAGCCUCCCUAGGCUUCCCGAUUCUCAGGUCUUCUC	0.649

Sample 3
Target: RING finger protein unkempt homolog, zinc fingers 1-6, SBP tag (UNK, Homo sapiens, UniProt Q9C0B0, residues 30-357)
Sequence of UniProt Q9C0B0 (30-357, looked up): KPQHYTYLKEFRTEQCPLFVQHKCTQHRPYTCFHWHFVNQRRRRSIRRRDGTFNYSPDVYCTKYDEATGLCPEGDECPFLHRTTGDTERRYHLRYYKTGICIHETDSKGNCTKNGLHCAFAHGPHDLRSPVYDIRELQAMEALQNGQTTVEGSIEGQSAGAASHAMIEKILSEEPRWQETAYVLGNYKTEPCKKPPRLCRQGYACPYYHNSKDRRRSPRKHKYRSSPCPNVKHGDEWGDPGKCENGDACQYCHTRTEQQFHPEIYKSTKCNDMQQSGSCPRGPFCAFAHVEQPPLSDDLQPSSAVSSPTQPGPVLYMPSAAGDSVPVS
Technique: RNA Bind-n-Seq
Form: RNA
Matrix: in vitro
Concentration: 100 nM
Setting: RNA with constant flanks, vertebrate orthologous sites, ends assumed
Reference: input RNA pool
Direction: higher = stronger binding
All sequences stand within: GGGAGUUCUACAGUCCGACGAUC … CAACAGAGGAUUGAGCAUCA
Sequence	bound/input enrichment [ratio]
GUUGGGUCAUGACCCUUACAGGUUAGGUCAUGAUGCUUAUAGGUUAGGACAAGACCCUUAUAGAUUAGGCCAUGAUCCCUACAGACUAACUCCUGAUCCCUAUAGGAUGUCACCUAGACC	0.641
GUUGGUGCAGAGUGCUCUCUGUACCAGUGCUCAUCACCCCUUCUUCAUACCAACUGUCCCUAGUUCUAGGAAUUUAAUAUUUUUAAAAGUUUUACAUUGCUGUAUAUUCAAAGAUUUGUU	1.11
UACCUCCUGAGCUUCUAGCUUUCAAGCUGUGGCUAUUUUUUUUUUUCUUUUUCUUUUCUUUAGAAUUUUUCCCCAUUUCCCACCUUCUCUUCUCCUGUUCCCAAGGUCUGACUCAUGGAU	3.19
GCUCUAGUUCUUAAGAACCAACACUUGUAAGAGAUUUAGAAAAAAGUUUACAACAUAAUCUAGUUUACCGAAGGAGCCUUGUGCUAGAAUACUUUUUAAAAAGUAUUUUUGAAUACUAUU	0.554
CAUUUUAUAUAUCAAAAAAAGGCUUUGAAUUUGAAUUUUUAAACAAUUGCUAGUUUUAAUUAGCUCUGCCCUCAUAAAGUGUUAUAAUUCACCAUAAACAGAUAUCGGUCUGAAUUACUU	0.328
UGGGUUACUCCUAUUAUUAUCAAGUAGCUGGAAUUGUGAAGGUCAGAGUAGUUAGAUCUUUAGCUUUUAUUCCUUAUUUUUUUGUAUUACUAUCCAUGUGUAUAAAUUAUUGAUCAUGUU	2.54
CGCGGAGGAAGAGCCCACUCGCCGCUGCCCAUGGAUGAUUGAGGAACCCUCGCCAGCCCUAGGGGGCAGGGCACAGUAUUUUCUUUUUCUGCCUCAGAGUCUCCAAAAGCAGAAGUGGCA	0.506
CCGAAAGGCCAGAUUCCCUCCUCCCUUCUACUGCUUCUACCAACUGGAAGCACAGAAAACUAGAACUUCAUUUAUUUUGGUUUUUUUUUUUUUAAAGAUAUGUUGAUUUCUUGUAACAUC	0.853
UGGUUACUGUGAUAUUGAAAUCAUGCACAGUACUCAUUUUUUUCCCUCCUCAGAUGAUUCCAUUAAUUGCCUAGAAAUAUCUUUUUCUUACCUGUUAUUUAUCAAUUUUUCCCAGUAUUU	0.741
CCCCUCUGAACCCCAUAUCUUCUGUUUCAUAGUGCAGAGUAUUCUCUUCAAUUAUGUUAUUAGUGGACUUGUUUUAAUUUUAGAGAAACUUUCAGUACAGAUACUGUGAGCUUACAUGGA	1.21
CAACUCCAUGGUGGAGGGCUCAGAGCUCAAAAAGCUUCGCUCCAACUCCAGAAUUUACCACCGGUAUUUUCUCCUGGACGCUGACAUGCAGAGCCUGAGAUGGGAACCAUCCAAGAAGGA	0.121

Sample 4
Target: Phosphate system positive regulatory protein PHO4, full length, GST-tagged (PHO4, Saccharomyces cerevisiae, UniProt P07270, residues 1-312)
Technique: competition protein-binding microarray
Form: double-stranded DNA, one strand shown
Matrix: in vitro
Concentration: 2 µM
Setting: whole 60-bp probe, lowest competitor level
With: Cbf1 competitor, 0.05 µM
Direction: higher = stronger binding
All sequences stand within: … GTCTTGATTCGCTTGACGCTGCTG
Target sequence (chain): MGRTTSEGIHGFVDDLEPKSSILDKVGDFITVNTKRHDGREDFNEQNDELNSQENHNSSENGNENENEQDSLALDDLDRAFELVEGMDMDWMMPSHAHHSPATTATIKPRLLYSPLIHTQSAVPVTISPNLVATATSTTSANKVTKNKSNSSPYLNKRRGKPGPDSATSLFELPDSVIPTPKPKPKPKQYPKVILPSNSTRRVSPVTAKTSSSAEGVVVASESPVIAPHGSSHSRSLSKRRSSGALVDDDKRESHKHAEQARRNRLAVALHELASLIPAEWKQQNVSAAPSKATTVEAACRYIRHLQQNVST
Sequence	fluorescence intensity
CCCAATGGTGGCTCACACTTTTAAACTTTCTAAATT	4030 a.u.
AACGACGAATCCTGTCACATGTCTTGCTTGGTCGCA	10100 a.u.
CTTCTGTAAATTTGTCCAGTGGGTGGACGCGCCCCG	3650 a.u.
CCTGCAGCTGGCTCATTCGTGCTTTACTCTCTTTCC	5640 a.u.
GTCTTGTCTCATTGACACGTGGGTGTCCCCACTTCA	16000 a.u.
CGTCCTAGTGATTGTGCGGTGGGTGCCATGAGGAAG	7010 a.u.
TGCGCAACAACTTGCGCAGTGGGTGTATGTCTAGAA	5130 a.u.
GTCGTTATGGGAACAGACGTGATGGCTATCCTAGAA	5210 a.u.
CAACTGATATATATACACGTGAAGCAAAAAAGGCAT	14200 a.u.
AAAGCGGTAATTTGTCCGGTGGGTGCAGATATCTAT	4190 a.u.
CTCTGCTGGGGCCCTCACGTGGCCCTGGCATTTGGC	15700 a.u.
CCACCGGGGGCAAGTCTCATGACAATTGGCGCAAAT	4130 a.u.
CTTCTGTAAATTTGCACAGTGGGTGGACGCGCCCCG	3610 a.u.
CGATTCACTGTCCATCACGGGTCCGCCTGGCACTGG	6510 a.u.
CATCGGCCCATTTGGCACACGCCAGTTAGTGAGGTT	7090 a.u.
AGCCAGAAAATATACCATGTGTGAAAATAGCGATAA	8140 a.u.
TGAGGATGGCTATGGCATGTGGTAGTGGGATTAGAG	12700 a.u.
CATACCCAACCTTGTACCGTGGGTGAAGATATTTGT	6620 a.u.
TGCGCAACAACTTGCCAGGTGGGTGTATGTCTAGAA	6080 a.u.
CTTCTGTAAATTTGAGCTGTGGGTGGACGCGCCCCG	3740 a.u.
CTAACGAAGGTTTGTAGAGTGGGTGACAAGCCAAGT	3730 a.u.

Excerpt of the above (sample 2):
Sequence	RBNS enrichment (R)
CUCUAACCCUGCUCCUUCCUAGCACAGCUCUGCACAUCCAUCUCUCUCUCUUGCUGAAUGCACAUAUGUGCACACAUGUCAGCAUGUGCAUGCUCACUCCCCCACUUCUC	2.55
CUGACCCUUUGGAGGGGGUCUCUGUGUGCUGAAGCUAACUCAAGAUGGAAAGUGAAACCACAUGUGCCGUGACCUUUAGGUUUUAUGAGUAGACAGUGUUCAUUUGAUUU	0.413
UCUGGGCUUUCCUUUGCCCUCAGUUUUUCACAGGUAGGUAGUAGCCAUGGAGGGCUGAAGCCCAGGCUCUCCUUACUCUCUGGAGUGUGAAGGUAGGGGUGAGCUCGUCU	0.311
ACAAAACACACAAUUUGGGAUUUUGACUCUUCAGUUUUGACCUCACUUCUCCUGGAUCCAACCUGACAGGAGAUGACUGGAUUGCUGGGGUAGAGAAGGAAAGGCUGUCC	0.344
CCAGGCAAGGAGACCAAAACUUUCGCUCUGUUCACUUGUGCCUCACUUUGGAAGCUUAACUUCCCACCUAUCUGGGCCUUACUGGUUUACUUGUGGUUUUCCAUAGUUUU	0.202
UGGGUGGGAGUGGAAGUCCCUAGCACACAGCUUUGUGGAGACCUCCACUCUCACUCUUGGUGCAACUGACUUCCACUUCUUAUGCAGCCACUCCCAGGUGCAUGCUUCAG	0.779
UACUGACCAUAGCAUGUGACACUCAGACUUCUCAGCUCCUGUGCAUCCCAGUGUAGGCUCUGAGGCCACAUGGAAACUCUAGAUGGUUCUGAUCACUCUAGCCACCGGAG	6.52
